Experimental data pooled from the literature.
Each line is one published result; not all experiments were run side by side.

By UniProt entry, the sequences of proteins in these tests, tags left out.
UniProt Q9BWU1, whole entry: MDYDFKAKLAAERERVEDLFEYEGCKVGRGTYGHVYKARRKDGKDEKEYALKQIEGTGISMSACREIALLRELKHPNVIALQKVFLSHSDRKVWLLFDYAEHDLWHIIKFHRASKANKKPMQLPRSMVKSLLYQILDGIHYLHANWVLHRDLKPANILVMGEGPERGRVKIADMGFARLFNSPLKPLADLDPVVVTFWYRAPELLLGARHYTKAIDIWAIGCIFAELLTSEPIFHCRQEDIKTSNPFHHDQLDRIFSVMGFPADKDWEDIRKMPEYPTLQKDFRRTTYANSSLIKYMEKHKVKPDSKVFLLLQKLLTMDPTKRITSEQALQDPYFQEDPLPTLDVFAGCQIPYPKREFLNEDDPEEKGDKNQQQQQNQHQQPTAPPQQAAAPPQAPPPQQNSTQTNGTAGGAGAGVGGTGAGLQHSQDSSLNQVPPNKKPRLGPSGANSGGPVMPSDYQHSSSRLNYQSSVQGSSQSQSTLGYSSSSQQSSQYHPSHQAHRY
UniProt P49137, whole entry: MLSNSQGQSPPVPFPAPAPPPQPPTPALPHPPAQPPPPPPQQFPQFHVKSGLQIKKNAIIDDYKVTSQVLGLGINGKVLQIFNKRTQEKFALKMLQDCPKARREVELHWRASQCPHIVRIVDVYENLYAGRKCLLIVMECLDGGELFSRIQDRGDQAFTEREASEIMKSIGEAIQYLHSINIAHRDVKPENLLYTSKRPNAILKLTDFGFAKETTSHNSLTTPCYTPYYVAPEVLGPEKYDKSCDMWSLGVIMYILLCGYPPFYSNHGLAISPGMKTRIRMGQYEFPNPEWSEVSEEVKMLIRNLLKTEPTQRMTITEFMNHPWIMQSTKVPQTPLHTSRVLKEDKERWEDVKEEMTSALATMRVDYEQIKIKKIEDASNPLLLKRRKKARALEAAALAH

SMILES	tested on	test	test system	setting	scale	quantity	value
CCc1nc(N)nc(N)c1C#CCc1cc(OC)cc(-c2ccc(C(=O)O)cc2)c1	Staphylococcus aureus		MRSA clinical isolate dfrA			MIC	> 20 µg/mL
Cc1ccc(CCNC(=O)c2cnn3c(O)c(Cc4cc(C)ccc4C)c(C)nc23)cc1	dengue virus 2	viral replication, single-cycle viral yield	New Guinea C	10 µM		inhibition	> 90%
CCc1nc(N)nc(N)c1C#CCc1cc(OC)c(OC)c(-c2ccncc2)c1	Staphylococcus aureus		MRSA isolate HH 1184			MIC	1.25 µg/mL
Cc1ccc(C(C)C)c(Oc2cnc(N)nc2N)c1	Staphylococcus aureus		RN4220, LB broth	19 to 24 h		MIC	~50 µM
CSc1nc(Cl)cc(Sc2nnc(-c3cc(C(F)(F)F)cc(C(F)(F)F)c3)[nH]2)n1	Shigella flexneri		ATCC 12022	together with: NAB7061 4 µg/mL		MIC	0.3 µg/mL
CC(C)Cc1nnc2c(C(=O)NC3c4ccccc4-c4ccccc43)cccn12	Escherichia coli	broth microdilution	MB5746 rpoZ Δ13-91 frameshift		reference: mutant over wild type	MIC ratio	> 32
CCc1nc(N)nc(N)c1C#C[C@H](C)c1cc(OC)cc(-c2ccc(C(=O)O)cc2)c1	Staphylococcus aureus		MRSA isolate UCH 1			MIC	5 µg/mL
CCCCCCC1c2ccc(O)cc2Oc2cc(O)ccc21	Escherichia coli		MC4100	no additive		MIC	> 373 µg/mL
Oc1ccc(C2NCCc3c2[nH]c2ccc(Cl)cc32)cc1O (centres unmarked)	dengue virus 4	viral replication, plaque reduction	TVP360	bound stated in text		IC50	≤ 1000 nM
CCN1CCN(Cc2ccc(NC(=O)c3ccc(C)c(/C=C/c4cnc5[nH]ccc5c4OC)c3)cc2C(F)(F)F)CC1	CDK19 (Homo sapiens, UniProt Q9BWU1)	inhibitor, cell-based kinome screen, measured: CDC2L6	human cells	5 µM	reference: vehicle	log2 fold change	-0.07
COC(=O)c1ccc(Cl)cc1NC(=O)CSc1ncc(S(=O)(=O)c2ccc(Br)cc2)c(=O)[nH]1	dengue virus 2	viral replication, single-cycle viral yield	New Guinea C	5 µM		inhibition	> 90%
CCNC(=O)C(CCCCNC(=O)CCOCCOCCOCCOCCNC(=O)CCNc1ccc(-c2nc3ccc(C)cc3s2)cc1)NC(=O)C(CCCCNC(=O)CCOCCOCCOCCOCCNC(=O)CCNc1ccc(-c2nc3ccc(C)cc3s2)cc1)NC(=O)C(CCCCNC(=O)CCOCCOCCOCCOCCNC(=O)CCNc1ccc(-c2nc3ccc(C)cc3s2)cc1)NC(=O)C(CCCCNC(=O)CCOCCOCCOCCOCCNC(=O)CCNc1ccc(-c2nc3ccc(C)cc3s2)cc1)NC(=O)CCOCCOCCOCCOCCNC(=O)CCNc1ccc(-c2nc3ccc(C)cc3s2)cc1 (centres unmarked)	HIV-1	SEVI-enhanced infection	TZM-bl, IIIB	200 nM		infectivity reduction	~50%
CCCc1nn2c(=O)cc(CSc3nc(-c4ccc(C)cc4)nc4cc(=O)[nH]n34)nc2s1	dengue virus 4	viral replication, plaque reduction	BHK-21, TVP360			IC50	1000 to 10000 nM
CC#C/C(=N\OC[C@H]1COCCN1)c1ccc2ncnc(Nc3ccc(OCc4cccc(F)c4)c(Cl)c3)c2c1	MAPKAPK2 (Homo sapiens, UniProt P49137)	kinase activity		10 µM		inhibition	0%

For quick reference, copied from above:
SMILES	tested on	test	test system	setting	scale	quantity	value
CCc1nc(N)nc(N)c1C#CCc1cc(OC)c(OC)c(-c2ccncc2)c1	Staphylococcus aureus		MRSA isolate HH 1184			MIC	1.25 µg/mL
CCCCCCC1c2ccc(O)cc2Oc2cc(O)ccc21	Escherichia coli		MC4100	no additive		MIC	> 373 µg/mL
